Assay results from different studies.
Each line is one published result; not all experiments were run side by side. “And” joins repeats or separate records; there may be more than shown. ± gives the spread as reported.

Compound = CCCCc1nc(Cl)c(CO)n1Cc1ccc(-c2ccccc2-c2nn[nH]n2)cc1; target or system = human PBMC; test = RNA-seq, measured: CEMIP mRNA; setting = 10 µg/mL, 24 h; scale = baseline: untreated control; quantity = log2 fold change; result = 1.51
Compound = Cn1cc(-c2ccc(-c3cncc(Cl)c3N3CCC4(CCNC4=O)CC3)cc2)cn1; target or system = COLO 205; test = microarray, measured: ITPR1; setting = concentration not given, 2 h, gene set IP3R1; scale = baseline: untreated cells; quantity = fold change in expression; result = 2.43
Compound = Cc1n[nH]c2nc(-c3ccc(Cl)cc3)c3c(NC(=O)c4ccccc4)nnc-3n12; target or system = Malme-3M; test = SRB; setting = 10 µM, NCI60 single-dose screen; scale = baseline: untreated; quantity = cell growth; result = 96%
Compound = Cc1cc(C)nc(SCC(=O)Nc2ncc(Cc3cccc(OCc4cn(Cc5ccccc5C)nn4)c3)s2)n1; target or system = PC-3M-luc; test = cell viability, MTS; setting = 10 µM; quantity = inhibition; result = 22 ± 1.4%
Compound = CC(=O)c1nn(-c2ccc(C)cc2)/c(=N/N=C(\C)c2ccc(NC(=O)c3ccccc3)cc2)s1; target or system = MCF7; test = MTT; setting = 5 µM; quantity = cytotoxicity; result = 93.5%
Compound = CSCC[C@H](NC(=O)[C@H](Cc1ccc(OS(=O)(=O)O)cc1)NC(=O)[C@@H](N)CC(=O)O)C(=O)NCC(=O)N[C@@H](Cc1c[nH]c2ccccc12)C(=O)N[C@@H](CCSC)C(=O)N[C@@H](CC(=O)O)C(=O)N[C@@H](Cc1ccccc1)C(N)=O; target or system = HEK293T control virus; test = agonist, calcium mobilization; setting = 400 nM, no receptor expressed; scale = higher = more calcium release; quantity = calcium response; result = 0.0956 a.u. and 0.0771 a.u.
Compound = CCCNC(=O)[C@H]1O[C@@H]1C(=O)N[C@H](C(=O)N1CCC[C@H]1C(=O)OC)[C@@H](C)CC; target or system = MCF-10A; test = cell viability, MTT; setting = 72 h, dark; quantity = EC50; result = 49 ± 5.5 µM
Compound = O=C(/C=C/C=C/C=C/C1CCCCC1)NC1=C[C@@](O)(/C=C/C=C/C=C/C(=O)NC2=C(O)CCC2=O)[C@@H]2O[C@@H]2C1=O; target or system = Fu97; test = cell growth, CellTiter-Glo; setting = 78 h; quantity = GI50; result = 28.6 µM
Compound = CC(=O)O[C@H]1C(=O)[C@@]2(C)[C@H]([C@H](OC(=O)c3ccccc3)[C@]3(O)C[C@H](OC(=O)[C@H](O)[C@@H](NC(=O)c4ccccc4)c4ccccc4)C(C)=C1C3(C)C)[C@]1(OC(C)=O)CO[C@@H]1C[C@@H]2O; target or system = COS-7 and PC-3/TxR; scale = baseline: IC50 COS-7 over PC-3/TxR; quantity = selectivity index; result = 0.1
Compound = CC(CN(C)C)CN1c2ccccc2CCc2ccccc21 (stereo not shown); target or system = hCMEC/D3; test = H+/OC antiport; setting = 250 µM, 2 min, with: preloaded DPH; quantity = trans-stimulated efflux; result = ≤ 90%
Compound = Nc1cccc2c1C(=O)N(C1CCC(=O)NC1=O)C2=O (stereo not shown); target or system = RPMI-8226; test = flow cytometry, measured: CD32; setting = concentration not given; scale = baseline: comparator compound alone; quantity = surface marker level; result = 262%
Compound = CCCCN1CCN(c2ccc3[nH]c(-c4ccc5[nH]c(-c6ccc(OCC)cc6)nc5c4)nc3c2)CC1; target or system = Malme-3M; test = SRB; setting = 10 µM, 48 h; quantity = growth percent; result = 36%
Compound = Cn1c(Nc2nc3ccc(C(F)(F)F)cc3s2)nc2cc(C(=O)NCCOCCO)ccc21; target or system = SH-SY5Y; test = RNA-seq, measured: EDN1 mRNA; setting = 5 µM, 5 h; scale = baseline: untreated cells; quantity = fold change; result = 2.76
Compound = O=S(=O)(O)O; target or system = human neutrophils; test = anion exchange, substrate, trans-stimulated sulfate efflux; setting = external binding site; quantity = Km; result = ~14 mM
Compound = OC(CCN1CCCCC1)(c1ccccc1)C1CC2C=CC1C2 (stereo not shown); target or system = Toxoplasma gondii; test = parasite growth; test system = HFF, bradyzoite, glutamine-induced; quantity = EC50; result = 34 µM
Compound = CN(C)C(=O)c1cc2cnc(Nc3ccc(N4CCNCC4)cn3)nc2n1C1CCCC1; target or system = human neutrophils; setting = 1 to 10 µM, with: fMLF; quantity = PKA activity; result = increased
Compound = COc1cnc2cccc(N3CCc4c(cc(Cn5ccnc5C)cc4-c4cn(C)nc4C(F)(F)F)C3=O)c2c1; target or system = SNU761; test = cell growth; setting = 120 h; quantity = EC50; result = > 30 µM
Compound = CC(C)(C)c1cc(O)ccc1O; target or system = HepG2; test = respiratory reserve capacity, extracellular flux; setting = 1 h, distribution mode 1; quantity = point of departure; result = 0.0112 µM
Compound = CCc1cnc(N2CCC(c3nc(COc4ccc(-n5cnnn5)cc4)cs3)CC2)nc1; target or system = HEK-293T; test = RNA-seq GSEA, measured: HALLMARK_MTORC1_SIGNALING; setting = concentration not given; scale = direction not given; quantity = normalized enrichment score; result = 1.77
Compound = COc1cc(/C=C/C(=O)N2CCC=CC2=O)cc(OC)c1OC; target or system = Toxoplasma gondii; test = parasite growth, luciferase reporter; test system = HFF, tachyzoite; setting = 72 h; quantity = EC50; result = 3.92 µM
Compound = N#Cc1ccc(C[C@@H](Nc2ncc(-c3ccc(F)cc3)o2)C(=O)N2CCc3ccccc32)cc1; target or system = human neutrophils; test = calcium mobilization, agonist; quantity = EC50; result = > 50 µM
Compound = COC1=CC(=O)C=C(OC)C1=O; target or system = MCF-10A; test = CellTiter-Glo; setting = concentration not given; scale = baseline: normalised luminescence; quantity = viability; result = 80.2%

Excerpt of the above:
Compound = Cc1cc(C)nc(SCC(=O)Nc2ncc(Cc3cccc(OCc4cn(Cc5ccccc5C)nn4)c3)s2)n1; target or system = PC-3M-luc; test = cell viability, MTS; setting = 10 µM; quantity = inhibition; result = 22 ± 1.4%
Compound = CC(=O)c1nn(-c2ccc(C)cc2)/c(=N/N=C(\C)c2ccc(NC(=O)c3ccccc3)cc2)s1; target or system = MCF7; test = MTT; setting = 5 µM; quantity = cytotoxicity; result = 93.5%
